Published values from different studies.
Every numbered part comes from another study and shows a few of its results, in no order.
Chain of UniProt Q8TD19 (whole entry, looked up): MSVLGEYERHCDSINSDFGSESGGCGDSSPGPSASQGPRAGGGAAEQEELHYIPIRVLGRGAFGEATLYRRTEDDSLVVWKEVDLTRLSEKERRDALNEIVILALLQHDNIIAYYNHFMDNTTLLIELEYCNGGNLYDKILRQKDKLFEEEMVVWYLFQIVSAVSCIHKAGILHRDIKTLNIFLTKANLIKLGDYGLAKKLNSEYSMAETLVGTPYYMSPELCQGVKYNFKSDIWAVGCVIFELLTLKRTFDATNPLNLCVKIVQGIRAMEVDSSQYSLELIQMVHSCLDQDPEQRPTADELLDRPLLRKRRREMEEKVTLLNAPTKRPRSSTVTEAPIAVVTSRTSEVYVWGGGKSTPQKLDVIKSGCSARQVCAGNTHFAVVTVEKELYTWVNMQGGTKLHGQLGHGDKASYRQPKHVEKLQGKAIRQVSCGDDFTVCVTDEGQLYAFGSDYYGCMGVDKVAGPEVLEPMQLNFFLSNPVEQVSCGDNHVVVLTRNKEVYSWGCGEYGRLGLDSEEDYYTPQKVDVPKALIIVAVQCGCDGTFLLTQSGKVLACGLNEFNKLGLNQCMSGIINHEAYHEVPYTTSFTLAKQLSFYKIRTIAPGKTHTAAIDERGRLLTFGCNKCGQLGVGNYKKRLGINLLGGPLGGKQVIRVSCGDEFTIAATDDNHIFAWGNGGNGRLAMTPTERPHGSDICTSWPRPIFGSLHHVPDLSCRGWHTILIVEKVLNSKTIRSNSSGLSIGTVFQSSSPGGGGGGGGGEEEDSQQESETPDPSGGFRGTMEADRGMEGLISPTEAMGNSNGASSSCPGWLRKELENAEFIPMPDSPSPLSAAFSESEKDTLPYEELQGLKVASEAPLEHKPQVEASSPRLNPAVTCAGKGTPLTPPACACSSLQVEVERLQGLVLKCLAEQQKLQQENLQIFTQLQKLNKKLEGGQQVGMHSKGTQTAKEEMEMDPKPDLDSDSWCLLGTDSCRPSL
Chain of UniProt O94921 (whole entry, looked up): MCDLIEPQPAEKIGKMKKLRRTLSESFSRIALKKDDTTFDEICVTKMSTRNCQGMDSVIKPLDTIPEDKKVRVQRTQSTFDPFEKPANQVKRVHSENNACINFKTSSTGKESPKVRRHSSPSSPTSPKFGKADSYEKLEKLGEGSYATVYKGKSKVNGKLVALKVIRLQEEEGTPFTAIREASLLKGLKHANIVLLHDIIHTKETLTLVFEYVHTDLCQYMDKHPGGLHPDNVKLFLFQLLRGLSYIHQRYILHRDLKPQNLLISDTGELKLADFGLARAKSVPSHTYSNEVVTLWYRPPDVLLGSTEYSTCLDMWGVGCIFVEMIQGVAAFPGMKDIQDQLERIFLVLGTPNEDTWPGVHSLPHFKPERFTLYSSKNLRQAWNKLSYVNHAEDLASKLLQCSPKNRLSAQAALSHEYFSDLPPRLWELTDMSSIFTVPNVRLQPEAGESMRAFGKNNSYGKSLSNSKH
Chain of UniProt P42336 (whole entry, unmodified, looked up): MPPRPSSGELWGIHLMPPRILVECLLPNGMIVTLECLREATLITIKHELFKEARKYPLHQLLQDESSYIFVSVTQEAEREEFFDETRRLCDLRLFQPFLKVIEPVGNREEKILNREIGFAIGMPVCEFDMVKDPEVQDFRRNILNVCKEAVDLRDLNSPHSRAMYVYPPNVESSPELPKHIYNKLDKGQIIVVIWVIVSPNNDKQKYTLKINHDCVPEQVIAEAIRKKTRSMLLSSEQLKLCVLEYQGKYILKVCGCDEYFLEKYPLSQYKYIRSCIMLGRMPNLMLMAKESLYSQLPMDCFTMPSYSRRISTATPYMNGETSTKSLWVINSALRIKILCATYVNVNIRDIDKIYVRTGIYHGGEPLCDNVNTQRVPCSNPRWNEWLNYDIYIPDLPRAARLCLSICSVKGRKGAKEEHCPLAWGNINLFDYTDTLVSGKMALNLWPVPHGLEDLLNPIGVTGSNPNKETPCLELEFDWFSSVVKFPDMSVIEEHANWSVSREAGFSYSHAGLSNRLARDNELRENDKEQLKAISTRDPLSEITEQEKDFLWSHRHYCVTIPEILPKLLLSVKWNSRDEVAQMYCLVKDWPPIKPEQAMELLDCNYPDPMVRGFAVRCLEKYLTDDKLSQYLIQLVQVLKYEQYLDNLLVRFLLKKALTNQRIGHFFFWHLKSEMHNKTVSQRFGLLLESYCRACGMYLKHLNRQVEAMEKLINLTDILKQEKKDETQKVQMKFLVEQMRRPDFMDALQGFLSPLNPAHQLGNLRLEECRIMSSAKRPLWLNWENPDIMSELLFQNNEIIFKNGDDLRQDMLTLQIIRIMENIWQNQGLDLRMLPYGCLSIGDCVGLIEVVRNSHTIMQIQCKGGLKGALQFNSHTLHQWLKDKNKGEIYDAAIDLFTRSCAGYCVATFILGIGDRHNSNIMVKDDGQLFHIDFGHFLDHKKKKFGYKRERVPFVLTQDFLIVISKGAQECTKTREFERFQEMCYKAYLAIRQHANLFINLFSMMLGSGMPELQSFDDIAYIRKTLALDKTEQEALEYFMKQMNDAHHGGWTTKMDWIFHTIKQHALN
Chain of UniProt P07948 (whole entry, looked up): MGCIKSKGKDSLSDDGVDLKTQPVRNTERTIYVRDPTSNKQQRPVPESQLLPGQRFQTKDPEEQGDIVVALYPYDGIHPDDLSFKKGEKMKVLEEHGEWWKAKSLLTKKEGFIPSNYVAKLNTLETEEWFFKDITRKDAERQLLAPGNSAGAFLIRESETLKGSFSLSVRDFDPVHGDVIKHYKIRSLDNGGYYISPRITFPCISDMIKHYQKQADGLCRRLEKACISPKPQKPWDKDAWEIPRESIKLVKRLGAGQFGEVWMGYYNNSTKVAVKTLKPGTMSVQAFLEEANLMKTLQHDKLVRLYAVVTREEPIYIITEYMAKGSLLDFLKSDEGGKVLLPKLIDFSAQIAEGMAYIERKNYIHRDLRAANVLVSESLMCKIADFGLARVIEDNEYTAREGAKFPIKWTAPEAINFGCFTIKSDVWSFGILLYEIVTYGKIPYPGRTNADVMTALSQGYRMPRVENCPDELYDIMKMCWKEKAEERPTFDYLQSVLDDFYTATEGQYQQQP
Chain of UniProt Q9H0K1 (whole entry, looked up): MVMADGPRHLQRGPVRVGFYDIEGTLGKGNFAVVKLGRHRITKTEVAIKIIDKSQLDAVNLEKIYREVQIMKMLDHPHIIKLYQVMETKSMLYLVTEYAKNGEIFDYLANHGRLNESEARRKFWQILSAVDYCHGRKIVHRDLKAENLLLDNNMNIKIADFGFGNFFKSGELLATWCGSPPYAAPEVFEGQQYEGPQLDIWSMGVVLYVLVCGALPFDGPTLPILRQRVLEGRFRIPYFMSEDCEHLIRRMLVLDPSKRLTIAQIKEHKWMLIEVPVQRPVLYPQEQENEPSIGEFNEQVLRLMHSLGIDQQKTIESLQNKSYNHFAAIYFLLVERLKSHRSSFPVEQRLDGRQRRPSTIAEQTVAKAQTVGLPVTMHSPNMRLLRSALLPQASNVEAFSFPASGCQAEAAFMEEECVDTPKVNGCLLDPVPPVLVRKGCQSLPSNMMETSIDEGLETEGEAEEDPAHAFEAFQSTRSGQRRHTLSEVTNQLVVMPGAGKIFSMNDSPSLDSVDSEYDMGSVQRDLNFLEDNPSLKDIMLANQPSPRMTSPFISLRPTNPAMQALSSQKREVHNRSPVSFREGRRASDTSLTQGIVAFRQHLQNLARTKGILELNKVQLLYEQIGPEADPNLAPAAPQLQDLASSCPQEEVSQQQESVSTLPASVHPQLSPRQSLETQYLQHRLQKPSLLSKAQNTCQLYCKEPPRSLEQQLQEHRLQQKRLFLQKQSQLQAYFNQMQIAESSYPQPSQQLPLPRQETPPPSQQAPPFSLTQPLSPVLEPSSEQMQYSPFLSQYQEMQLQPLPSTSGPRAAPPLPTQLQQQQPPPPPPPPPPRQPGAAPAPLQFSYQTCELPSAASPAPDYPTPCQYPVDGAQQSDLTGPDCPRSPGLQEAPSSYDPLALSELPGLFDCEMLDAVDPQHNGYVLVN
Chain of UniProt P36507 (whole entry, looked up): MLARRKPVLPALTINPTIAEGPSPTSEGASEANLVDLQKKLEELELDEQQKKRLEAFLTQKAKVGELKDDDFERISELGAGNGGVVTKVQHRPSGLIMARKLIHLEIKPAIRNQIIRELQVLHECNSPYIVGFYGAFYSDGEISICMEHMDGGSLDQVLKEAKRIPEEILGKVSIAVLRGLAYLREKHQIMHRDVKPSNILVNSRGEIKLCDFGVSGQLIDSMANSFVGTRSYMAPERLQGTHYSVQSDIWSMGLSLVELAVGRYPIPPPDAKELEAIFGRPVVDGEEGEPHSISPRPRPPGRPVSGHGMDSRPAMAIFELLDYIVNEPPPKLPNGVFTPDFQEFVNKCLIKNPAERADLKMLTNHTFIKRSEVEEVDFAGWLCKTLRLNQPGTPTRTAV

Sample 1
Host: mouse
Sample: microsomes or S9
Tested at: 2 µM
Time: 0.5 h
SMILES	remaining compound [%]
Cc1ccc(S(=O)(=O)N2OC(c3ccc(Cl)cc3)(c3ccc(Cl)cc3)C=C2c2ccccc2)cc1	36.3
C/C=C/Cn1c(C(=O)c2cc(C)cc(C)c2)c(CC)c(=O)[nH]c1=O	43.5
CC(C)CC(O)C1CCN(C(=O)CCCn2cncn2)CC1 (centres unmarked)	26
c1ccc(C(Nc2ccc3nccnc3n2)c2ccccc2)cc1	1.77
COc1cc(OC)cc(-n2c3c(c4nc(OC)ccc42)C(C)CCC3)c1 (centres unmarked)	52
COc1ccc2nc(O)c(-c3c4oc5cc(O)ccc5c4nc4c3c(=O)[nH]n4C3CCCCCCC3)cc2c1	64.3
O=c1[nH]c2ncccc2n1Cc1nnc2ccc(-c3cccc(F)c3)nn12	99.8
COc1cc2cc(O)c(C)cc2cc1Cc1ccccc1	13.4
CN1CCCN(c2nc(CN3CCCCC3)nc3scc(-c4ccccc4)c23)CC1	35
COCC1COc2cc3ncnc(Nc4ccc(Br)cc4F)c3cc2O1 (centres unmarked)	0.536

Sample 2
Target: Calcium/calmodulin-dependent protein kinase type II subunit alpha (CAMK2A, Homo sapiens, UniProt Q9UQM7)
Chain of UniProt Q9UQM7 (whole entry, looked up): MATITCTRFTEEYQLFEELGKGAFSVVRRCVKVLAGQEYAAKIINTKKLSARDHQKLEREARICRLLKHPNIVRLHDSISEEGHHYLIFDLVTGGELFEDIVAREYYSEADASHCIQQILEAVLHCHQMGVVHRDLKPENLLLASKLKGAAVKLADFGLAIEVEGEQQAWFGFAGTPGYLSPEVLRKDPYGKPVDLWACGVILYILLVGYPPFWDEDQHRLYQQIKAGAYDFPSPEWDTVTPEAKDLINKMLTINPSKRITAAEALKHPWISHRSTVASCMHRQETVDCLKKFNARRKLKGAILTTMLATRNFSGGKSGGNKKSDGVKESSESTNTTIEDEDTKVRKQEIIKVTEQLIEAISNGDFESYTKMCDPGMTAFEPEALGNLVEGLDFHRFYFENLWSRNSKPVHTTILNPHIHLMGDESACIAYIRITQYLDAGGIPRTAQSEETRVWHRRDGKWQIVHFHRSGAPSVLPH
Read-out: enzyme activity
Action: inhibitor
Tested at: 10 µM
SMILES	inhibition [%]
C=CCSSSCC=C	-17
O=C(O[C@@H]1C[C@@H]2C[C@H]3C[C@H](C1)N2CC3=O)c1c[nH]c2ccccc12	-8
CC(C)(O)[C@@H]1CC[C@](C)([C@H]2[C@@H](O)C[C@@]3(C)[C@@H]4C[C@H](O[C@@H]5O[C@H](CO)[C@@H](O)[C@H](O)[C@H]5O)[C@H]5C(C)(C)[C@@H](O[C@@H]6OC[C@@H](O)[C@H](O)[C@H]6O[C@@H]6O[C@H](CO)[C@@H](O)[C@H](O)[C@H]6O)CC[C@@]56C[C@@]46CC[C@]23C)O1	10
CC(C)=CCc1c(O)ccc2ccc(=O)oc12	-11
O=Cc1c[nH]c2ccccc12	-16
C[C@@H](CO)C1=C(O)c2ccc3c(c2C(=O)C1=O)CCCC3(C)C	-1
C[C@@H]1O[C@@H](O[C@H]2[C@H](O[C@H]3CC[C@@]4(C)[C@@H](CC[C@]5(C)[C@@H]4CC=C4[C@@H]6CC(C)(C)CC[C@]6(C(=O)O[C@@H]6O[C@H](CO[C@@H]7O[C@H](CO)[C@@H](O)[C@H](O)[C@H]7O)[C@@H](O)[C@H](O)[C@H]6O)CC[C@]45C)[C@]3(C)CO)OC[C@H](O)[C@@H]2O)[C@H](O)[C@H](O[C@@H]2O[C@H](CO)[C@@H](O)[C@H](O)[C@H]2O)[C@H]1O	5
C=CC1(C)CCC(C(C)(C)O)O1 (centres unmarked)	9
CC(C)(O)CCC(=O)[C@](C)(O)[C@H]1[C@H](O)C[C@@]2(C)[C@@H]3CC=C4[C@@H](C[C@H](O)[C@@H](O)C4(C)C)[C@]3(C)C(=O)C[C@]12C	-43

Sample 3
SMILES: Cc1sc(C(=O)NC2COC2)cc1-n1cc(NC(=O)Nc2c(F)cccc2Cl)cn1
Tested at: 10 µM
target	test	how to read	remaining activity
CAMK1D (Homo sapiens, UniProt Q8IU85)	enzyme activity	reference: untreated control	104%
CDC42BPA (Homo sapiens, UniProt Q5VT25)	enzyme activity	reference: untreated control	102%
CDK14 (Homo sapiens, UniProt O94921)	enzyme activity	reference: untreated control	95.3%
CAMK4 (Homo sapiens, UniProt Q16566)	enzyme activity	reference: untreated control	96.5%
MAP2K2 (Homo sapiens, UniProt P36507)	enzyme activity	reference: untreated control	97.5%
Tyrosine-protein kinase Lyn, isoform B (LYN, Homo sapiens, UniProt P07948)	kinase activity, kinase panel profiling	–	86.8%
MAP4K3 (Homo sapiens, UniProt Q8IVH8)	enzyme activity	reference: untreated control	117%
ACVR1 (Homo sapiens, UniProt Q04771)	enzyme activity	reference: untreated control	104%
ERBB4 (Homo sapiens, UniProt Q15303)	enzyme activity	reference: untreated control	94.6%

Sample 4
SMILES: CCCCN(CCCC)C(=O)CN1C[C@H](c2cc(OC)c3c(c2)OCO3)[C@@H](C(=O)O)[C@@H]1CC(C)(C)CCC
Read-out: cell-free assay
Technique: competition with immobilised ligand
Tested at: 1 µM
target	remaining binding
MAPK14 (Homo sapiens, UniProt Q16539)	100%
STK36 (Homo sapiens, UniProt Q9NRP7)	100%
HCK (Homo sapiens, UniProt P08631)	100%
VRK2 (Homo sapiens, UniProt Q86Y07)	72.8%
CASK (Homo sapiens, UniProt O14936)	70%
SIK2 (Homo sapiens, UniProt Q9H0K1)	100%
NEK5 (Homo sapiens, UniProt Q6P3R8)	100%
NEK9 (Homo sapiens, UniProt Q8TD19)	100%
EGFR (Homo sapiens, UniProt P00533, L858R/T790M)	60.6%
EPHB1 (Homo sapiens, UniProt P54762)	100%
PIK3CA (Homo sapiens, UniProt P42336, E545K)	70%
Tyrosine-protein kinase ABL1, phosphorylated (ABL1, Homo sapiens, UniProt P00519, Y253F)	86.7%
GSK3A (Homo sapiens, UniProt P49840)	92.3%
WNK1 (Homo sapiens, UniProt Q9H4A3)	72.9%
MET (Homo sapiens, UniProt P08581, M1250T)	100%
FLT3 (Homo sapiens, UniProt P36888, ITD)	100%
